{"data": "Assay results collected from several papers", "note": "Parts stem from different laboratories: compare values within a part only. Substitutions count along the parent as printed."}
{"data": "Sample 1", "target": "Ras GTPase-activating protein-binding protein 1, full length (G3BP1, Homo sapiens, UniProt Q13283)", "technique": "RNA Bind-n-Seq", "molecule type": "RNA", "matrix": "in vitro", "tested at": "200 nM", "setting": "whole 134-nt RNA, ends assumed", "together with": "150 mM LiCl", "relative to": "input library", "reading": "higher = stronger binding", "all molecules": "7-deaza-guanosine replaces G", "shared flanks, not repeated": "GGGAGUUCUACAGUCCGACGAUC … UGGAAUUCUCGGGUGUCAAGG", "sequence of UniProt Q13283 (whole entry, looked up)": "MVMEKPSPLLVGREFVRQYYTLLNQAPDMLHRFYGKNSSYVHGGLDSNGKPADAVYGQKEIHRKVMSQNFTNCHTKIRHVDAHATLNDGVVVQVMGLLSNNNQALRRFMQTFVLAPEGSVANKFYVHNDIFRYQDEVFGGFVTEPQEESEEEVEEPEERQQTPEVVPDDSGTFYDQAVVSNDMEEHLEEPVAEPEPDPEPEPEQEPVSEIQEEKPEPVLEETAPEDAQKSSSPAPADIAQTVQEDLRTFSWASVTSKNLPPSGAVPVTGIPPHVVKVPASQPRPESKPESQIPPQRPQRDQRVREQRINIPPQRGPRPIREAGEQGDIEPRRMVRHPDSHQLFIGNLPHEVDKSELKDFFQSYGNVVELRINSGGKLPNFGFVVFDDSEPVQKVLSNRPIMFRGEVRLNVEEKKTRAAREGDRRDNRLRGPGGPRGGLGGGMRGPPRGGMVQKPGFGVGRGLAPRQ"}
{"Oligonucleotide": "CCUCAAGUCCUGUGCUACACAUCGUAUGUACCGAAUCGGUUGGGUUGGUUGGAAAGUAUUAUGUUACGCCGUUCGGAUCUGCACUUCCAG", "log2 enrichment": -0.0198}
{"Oligonucleotide": "UGUGCUACACAUCGUAUGUACCGAAUCGGGCCCCCCCGGGGCCCCCCCGGGGCCCCCCCGGGGAAAGUAUUAUGUUACGCCGUUCGGAUC", "log2 enrichment": -0.8}
{"Oligonucleotide": "UUGACCGGAGCGGCCGUCACUUUGGUACAAUCCUCAAUUACCUGCGGGAUGGGUCUGUGCCACUGCCGGAGAGUACGAGAGAACUGGGGG", "log2 enrichment": -1.37}
{"Oligonucleotide": "CAAGUCCUGUGCUACACAUCGUAUGUACCGAAUCGGAAAGGUUUUUUUGGAAAGGAAAGUAUUAUGUUACGCCGUUCGGAUCUGCACUUC", "log2 enrichment": -1.53}
{"Oligonucleotide": "UGUGAACUUGUAUGUGAAGAAUCUGGACGACUCCAUUGAUGACGACAAACUGAGGAAAGAGUUCUCUCCCUAUGGAGUAAUUACCAGUGC", "log2 enrichment": 0.845}
{"Oligonucleotide": "AAGUCCUGUGCUACACAUCGUAUGUACCGAAUCGGUUUUUGGUUUUUGGAAAAAGGAAAGUAUUAUGUUACGCCGUUCGGAUCUGCACUU", "log2 enrichment": -0.976}
{"Oligonucleotide": "UUUUAGAAAGAGAAGGGGAAGAAAAUGAAGCCUUACAUAAGAUGAUUGCAAACGAGCAAAAGACUUCUCUCCCAAAUUUGUUCCAGGAUA", "log2 enrichment": -2.52}
{"Oligonucleotide": "UGGGAGGUGGAUUUUGUUUAUUUUUUUAGCUCAUUUCCAGGGGUGGGAAUUUUUUUUUAAUAUGUGUCAUGAAUAAUGUUGUUUUUGAAA", "log2 enrichment": -0.341}
{"Oligonucleotide": "ACCAUGCAGGUGGGCAUCUUUGAAAAGUGGGGCAAGGGGGGGAUAGGGAGGGGGGUAACACUUUGGGAACAGGUGGUCCCAGGUCGUUUC", "log2 enrichment": 0.399}
{"Oligonucleotide": "UGGCCCUGGUGGCAGGCGGGGAGGAAGAGGUGGCCUCAUGGAUCGUGGUGGUCCCGGUGGAAUGUUCAGAGGUGGCCGUGGUGGAGACAG", "log2 enrichment": 0.849}
{"Oligonucleotide": "UCAAGUCCUGUGCUACACAUCGUAUGUACCGAAUCGGUUUGGUUUGGAAAAAGGAAAGUAUUAUGUUACGCCGUUCGGAUCUGCACUUCC", "log2 enrichment": -0.51}
{"data": "Sample 2", "target": "Sal-like protein 4, full length isoform B (SALL4, Homo sapiens, UniProt Q9UJQ4-2, residues 1-616)", "technique": "universal PBM", "molecule type": "double-stranded DNA, one strand shown", "matrix": "in vitro", "tested at": "not given", "setting": "8-mer, flanks averaged, mean of replicates", "reading": "higher = stronger binding"}
{"Oligonucleotide": "CCACCAGA", "E-score": -0.178}
{"Oligonucleotide": "CATCTTGG", "E-score": 0.0561}
{"Oligonucleotide": "ATTCCCTA", "E-score": 0.198}
{"Oligonucleotide": "CCGTACCA", "E-score": -0.136}
{"Oligonucleotide": "ATTGTGTG", "E-score": 0.0227}
{"Oligonucleotide": "ATTGCATA", "E-score": 0.236}
{"Oligonucleotide": "AATATGGC", "E-score": 0.227}
{"Oligonucleotide": "GTCTTAGA", "E-score": 0.0255}
{"Oligonucleotide": "ACCCGATA", "E-score": -0.0661}
{"Oligonucleotide": "AACTAACT", "E-score": 0.0432}
{"Oligonucleotide": "ATATTTCG", "E-score": 0.417}
{"Oligonucleotide": "AAACTCAT", "E-score": 0.214}
{"Oligonucleotide": "CTAGCTTC", "E-score": -0.0104}
{"Oligonucleotide": "TGATACAA", "E-score": 0.163}
{"Oligonucleotide": "CGGACTCC", "E-score": -0.2}
{"Oligonucleotide": "GGATAGGA", "E-score": 0.00917}
{"Oligonucleotide": "GTCTATAA", "E-score": 0.322}
{"Oligonucleotide": "AAGTTACG", "E-score": 0.0946}
{"Oligonucleotide": "AAAAAGGC", "E-score": 0.153}
{"Oligonucleotide": "GACTTCTA", "E-score": -0.0932}
{"Oligonucleotide": "TCAAAACA", "E-score": 0.16}
{"Oligonucleotide": "AATATGCA", "E-score": 0.234}
{"Oligonucleotide": "GCCGGGAA", "E-score": -0.259}
{"Oligonucleotide": "ATTGCATG", "E-score": 0.192}
{"Oligonucleotide": "GCGACTAC", "E-score": -0.141}
{"data": "Sample 3", "target": "Histone acetyltransferase KAT6A, winged helix 1, GST fusion (KAT6A, Homo sapiens, UniProt Q92794, residues 1-85)", "technique": "protein binding microarray", "molecule type": "double-stranded DNA, one strand shown", "matrix": "in vitro", "tested at": "not given", "setting": "8-mer, flanks averaged, mean of 2 arrays, mostly near background", "relative to": "not given", "reading": "higher = stronger binding", "Residues (chain)": "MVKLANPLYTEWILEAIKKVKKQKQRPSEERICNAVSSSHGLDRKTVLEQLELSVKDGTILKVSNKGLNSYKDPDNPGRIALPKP"}
{"Oligonucleotide": "CTCACCCC", "E-score": 0.0188}
{"Oligonucleotide": "AGGTTCCG", "E-score": 0.211}
{"Oligonucleotide": "ACGATCAC", "E-score": -0.0639}
{"Oligonucleotide": "AGGTTTCA", "E-score": -0.148}
{"Oligonucleotide": "AGTTCTGG", "E-score": -0.209}
{"Oligonucleotide": "ATTCCAGC", "E-score": -0.218}
{"Oligonucleotide": "CAATAACA", "E-score": -0.102}
{"Oligonucleotide": "GCGGGAAC", "E-score": 0.414}
{"Oligonucleotide": "ATGAAAGA", "E-score": -0.162}
{"Oligonucleotide": "CAGACTCG", "E-score": -0.107}
{"Oligonucleotide": "AAGCCTAT", "E-score": -0.0642}
{"Oligonucleotide": "GTGGACTA", "E-score": -0.11}
{"Oligonucleotide": "AACGTGCA", "E-score": -0.174}
{"Oligonucleotide": "AGCCTAGC", "E-score": 0.0267}
{"Oligonucleotide": "CGTCCTGC", "E-score": -0.0222}
{"Oligonucleotide": "AGTACCTG", "E-score": -0.17}
{"Oligonucleotide": "CATAAGCC", "E-score": 0.0335}
{"Oligonucleotide": "AGTTCACG", "E-score": -0.0188}
{"Oligonucleotide": "CAGCATTA", "E-score": -0.173}
{"Oligonucleotide": "CAGATGCG", "E-score": -0.0182}
{"Oligonucleotide": "CGTTATTA", "E-score": 0.241}
{"data": "Sample 4", "target": "CCNA2, cyclin fold, Cln2 fusion (human)", "technique": "yeast growth competition, sequencing", "matrix": "yeast", "setting": "strong parent motif", "relative to": "not given", "reading": "higher = stronger binding", "parent": "E2F1 docking peptide (human); PPVKRRLDLETDH; partner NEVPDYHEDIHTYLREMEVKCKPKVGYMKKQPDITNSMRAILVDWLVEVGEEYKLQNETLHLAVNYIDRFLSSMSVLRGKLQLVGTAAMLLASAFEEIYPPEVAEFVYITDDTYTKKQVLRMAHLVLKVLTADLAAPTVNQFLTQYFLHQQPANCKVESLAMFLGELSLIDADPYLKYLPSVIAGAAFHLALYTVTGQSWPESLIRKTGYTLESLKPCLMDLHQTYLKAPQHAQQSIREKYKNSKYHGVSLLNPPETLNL"}
{"Substitution": "PPVKRRLDLETVH [D12V]", "normalised enrichment score": 4.87}
{"Substitution": "PPVARRLDLETDH [K4A]", "normalised enrichment score": 4.1}
{"Substitution": "PPVKRQLDLETDH [R6Q]", "normalised enrichment score": 2.67}
{"Substitution": "PPVKRRLDLETDT [H13T]", "normalised enrichment score": 4.97}
{"Substitution": "DPVKRRLDLETDH [P1D]", "normalised enrichment score": 2.23}
{"Substitution": "PPVKRRLDLETDW [H13W]", "normalised enrichment score": 4.24}
{"Substitution": "PPVKRGLDLETDH [R6G]", "normalised enrichment score": 0.38}
{"Substitution": "PPAKRRLDLETDH [V3A]", "normalised enrichment score": 5.32}
{"Substitution": "MPVKRRLDLETDH [P1M]", "normalised enrichment score": 5.2}
{"Substitution": "PPVKRRLDLKTDH [E10K]", "normalised enrichment score": 2.7}
{"Substitution": "PPVKRHLDLETDH [R6H]", "normalised enrichment score": 1.76}
{"Substitution": "PPVKFRLDLETDH [R5F]", "normalised enrichment score": 0.752}
{"Substitution": "PPVKRWLDLETDH [R6W]", "normalised enrichment score": 0.549}
{"Substitution": "PPVKRRLDLETAH [D12A]", "normalised enrichment score": 4.57}
{"Substitution": "PPVKRMLDLETDH [R6M]", "normalised enrichment score": 2.4}
{"Substitution": "PPVKRRADLETDH [L7A]", "normalised enrichment score": -0.163}
{"Substitution": "PPVKRRLKLETDH [D8K]", "normalised enrichment score": 4.48}
{"Substitution": "PPVKRRLALETDH [D8A]", "normalised enrichment score": 4.06}
{"Substitution": "PPVKRRLILETDH [D8I]", "normalised enrichment score": 4.73}
{"Substitution": "PPVKRRLDLVTDH [E10V]", "normalised enrichment score": 3.65}
{"Substitution": "PPVFRRLDLETDH [K4F]", "normalised enrichment score": 1.14}
{"note": "A few entries again (sample 3):"}
{"Oligonucleotide": "AGGTTCCG", "E-score": 0.211}
{"Oligonucleotide": "ACGATCAC", "E-score": -0.0639}
{"Oligonucleotide": "AGGTTTCA", "E-score": -0.148}
{"Oligonucleotide": "AGTTCTGG", "E-score": -0.209}
{"Oligonucleotide": "ATTCCAGC", "E-score": -0.218}
{"Oligonucleotide": "CAATAACA", "E-score": -0.102}
{"Oligonucleotide": "GCGGGAAC", "E-score": 0.414}
{"Oligonucleotide": "ATGAAAGA", "E-score": -0.162}
{"Oligonucleotide": "CAGACTCG", "E-score": -0.107}
{"Oligonucleotide": "AAGCCTAT", "E-score": -0.0642}
{"Oligonucleotide": "GTGGACTA", "E-score": -0.11}
